Experimental data from different studies.
Every numbered part comes from another study and shows a few of its results, in no order. Values joined by “and” are separate records of one study, mostly repeats; a detail may differ.

Series 1
Cell line: MDA-MB-231
Read-out: cell viability
Method: CellCounting-Lite
Concentration: 222.2 nM
Temperature: 37 °C
Direction: higher = more viable cells
SMILES | luminescence signal
CCn1cnc2c(NCc3nc4cc(Cl)c(Cl)cc4[nH]3)nc(N3CCN(C(=O)CNC(C)=O)CC3)nc21 | 34200 a.u. and 27300 a.u. and 25700 a.u.
CC(=O)N1CCN(c2nc(NCc3nc4cc(Cl)c(Cl)cc4[nH]3)c3ncn(C(C)C)c3n2)CC1 | 515000 a.u. and 494000 a.u. and 491000 a.u.
CCn1cnc2c(NCc3nc4cc(Cl)c(Cl)cc4[nH]3)nc(N3CCN(C(=O)c4ccccc4)CC3)nc21 | 13200 a.u. and 12400 a.u. and 10300 a.u.
CCn1cnc2c(NCc3nc4cc(Cl)c(Cl)cc4[nH]3)nc(N3CCN(c4ccccn4)CC3)nc21 | 498000 a.u. and 532000 a.u. and 504000 a.u.
CCn1cnc2c(NCc3nc4cc(Cl)c(Cl)cc4[nH]3)nc(N3CCN(S(C)(=O)=O)CC3)nc21 | 15400 a.u. and 14500 a.u. and 16300 a.u.
CC(=O)N1CCN(c2nc(NCc3nc4cc(Cl)c(Cl)cc4[nH]3)c3ncn(-c4cnn(C)c4)c3n2)CC1 | 226000 a.u. and 293000 a.u. and 221000 a.u.
CCn1cnc2c(NCc3nc4cc(F)c(F)cc4[nH]3)nc(N3CCn4ncnc4C3)nc21 | 219000 a.u. and 230000 a.u. and 202000 a.u.
Cn1cc(-n2cnc3c(NCc4nc5cc(Cl)c(Cl)cc5[nH]4)nc(N4CCNCC4)nc32)cn1 | 49100 a.u. and 38200 a.u. and 45800 a.u.
CCn1cnc2c(NCc3nc4cc(Cl)c(Cl)cc4[nH]3)nc(N3CCN(C(=O)c4ccncc4)CC3)nc21 | 8990 a.u. and 9360 a.u. and 11900 a.u.
CCn1cnc2c(NCc3nc4cc(Cl)c(Cl)cc4[nH]3)nc(N3CCn4ncnc4C3)nc21 | 14700 a.u. and 13500 a.u. and 15700 a.u.
CC(=O)N1CCN(c2nc(NCc3nc4cc(Cl)c(Cl)cc4[nH]3)c3ncn(C)c3n2)CC1 | 173000 a.u. and 178000 a.u. and 132000 a.u.
CCn1cnc2c(NCc3nc4cc(Cl)c(Cl)cc4[nH]3)nc(N3CCC(NC(C)=O)CC3)nc21 | 248000 a.u. and 224000 a.u. and 202000 a.u.
CCn1cnc2c(NCc3nc4cc(Cl)c(Cl)cc4[nH]3)nc(N3CCN(C(=O)[C@H](C)NC(C)=O)CC3)nc21 | 78900 a.u. and 78500 a.u. and 73000 a.u.
CCn1cnc2c(NCc3nc4cc(Cl)c(Cl)cc4[nH]3)nc(N3CCN(Cc4ccncc4)CC3)nc21 | 19400 a.u. and 24300 a.u.
CCn1cnc2c(NCc3nc4ccc(F)c(F)c4[nH]3)nc(N3CCn4ncnc4C3)nc21 | 105000 a.u. and 81100 a.u. and 113000 a.u.
CCn1cnc2c(NCc3nc4cc(Cl)c(Cl)cc4[nH]3)nc(N3CCN(C(=O)c4ccccn4)CC3)nc21 | 13100 a.u. and 12600 a.u. and 13300 a.u.
CCCCOc1nc(NCc2nc3cc(Cl)c(Cl)cc3[nH]2)c2ncn(CC)c2n1 | 210000 a.u. and 267000 a.u. and 266000 a.u.
CCn1cnc2c(NCc3nc4cc(Cl)c(Cl)cc4[nH]3)nc(N3CCN(C(C)=O)CC3)nc21 | 11200 a.u. and 10500 a.u. and 11100 a.u.

Series 2
Compound: Cc1ccc(O)c(C)c1-c1cnc2[nH]c(-c3cnc(N)nc3)cc2c1C#N
PKMYT1: Membrane-associated tyrosine- and threonine-specific cdc2-inhibitory kinase (PKMYT1, Homo sapiens, UniProt Q99640)
target or system | read-out | mode | method | refers to | concentration | inhibition
HuCCT-1 | cell proliferation |  |  |  | 123.46 nM | 5.67%
KLE | cell proliferation |  |  |  | 1111.11 nM | 44.3%
HCC1806 | cell proliferation |  |  |  | 13.72 nM | 3.56%
HCC1569 | cell proliferation |  |  |  | 10000 nM | 97.9%
HCC1569 |  |  | automated capillary immunoblot | CDK1 phospho-Thr14 | 111.11 nM | 52.2%
PKMYT1 | enzyme activity | inhibitor |  |  | 1.372 nM | 23.5%
PKMYT1 | cell-free assay |  | TR-FRET |  | 12.35 nM | 97.6%
KLE | cell proliferation |  |  |  | 3333.33 nM | 88.9%
MKN-1 | cell proliferation |  |  |  | 13.72 nM | 1.3%
U-251 MG | cell growth |  |  |  | 1.524 nM | 3.58%
HCC1806 | cell proliferation |  |  |  | 3333.33 nM | 97.2%
HCC1806 | cell proliferation |  |  |  | 123.5 nM | 26.2%
PKMYT1 | cell-free assay |  | TR-FRET |  | 0.1111 µM | 98.9%
PKMYT1 | enzyme activity | inhibitor |  |  | 1.37 nM | 31.4%
PKMYT1 |  |  |  |  | 0.004115 µM | 70.1%
HCC1569 |  |  | automated capillary immunoblot | CDK1 phospho-Thr14 | 0.05 nM | 20.7%
KLE | cell proliferation |  |  |  | 123.5 nM | 4.49%
NCI-H1648 | cell proliferation |  |  |  | 6976.74 nM | 87.4%
HuCCT-1 | cell proliferation |  |  |  | 13.72 nM | -2.54%
HCC1806 | cell proliferation |  |  |  | 370.37 nM | 59.4%
NCI-H1648 | cell proliferation |  |  |  | 2325.58 nM | 36.2%
PKMYT1 |  |  |  |  | 0.00015 µM | -4.27% and -2.99%
HuCCT-1 | cell proliferation |  |  |  | 41.15 nM | 0.54%
KLE | cell proliferation |  |  |  | 4.572 nM | -1.24%
HCC1806 | cell proliferation |  |  |  | 4.572 nM | 8.9%

Series 3
SMILES: CS(=O)(=O)c1ccc(OC/C(=C/F)CN)cc1
Read-out: enzyme activity
Mode: inhibitor
target | IC50
MAOB (Homo sapiens, UniProt P27338) | > 30 µM
MAOA (Homo sapiens, UniProt P21397) | > 30 µM
AOC1 (Homo sapiens, UniProt P19801) | > 30 µM
Amine oxidase [copper-containing] 3 (Rattus norvegicus, UniProt O08590) | 0.002 µM

Series 4
Structure (SMILES): CCN1/C(=C/C=C2\CCCC(/C=C/C3=[N+](CC)c4ccccc4C3(C)C)=C2NCCCCCCCCN2CCC(Nc3nc4ccccc4n3Cc3ccc(F)cc3)CC2)C(C)(C)c2ccccc21
Cell line: U-87 MG
Concentration: concentration not given
Relative to: DMSO
refers to | log2 fold change
AOX1 mRNA | -1.53
CENPA mRNA | -2.44
GK mRNA | 1.61
MYCL mRNA | 2.99
ABL2 mRNA | 1.23
PLK1 mRNA | -2.17
SP6 mRNA | -1.03
ASF1B mRNA | -1.7
POLR3C mRNA | 0.858
CORO6 mRNA | -1.42
TGIF1 mRNA | 1.43
KDM7A mRNA | 2.14
ZXDC mRNA | 1.04
CDC20 mRNA | -2.32
PRRT2 mRNA | -1.47
CCL3 mRNA | 1.75

Series 5
SMILES: CCN1CCN(Cc2ccc(COc3c(-c4c(C)c(F)cc5[nH]ncc45)c(C4CC4)cc4c(N5C[C@@H]6C[C@H]5CN6)nc(OC5CCOCC5)nc34)cc2)C(=O)C1
Method: in-cell ELISA
cell line | concentration | time | phospho-ERK1/2 level
AsPC-1 (KRAS G12D) | 10 nM | 24 h | 107% and 102% and 99.5%
AsPC-1 (KRAS G12D) | 100 nM | 24 h | 95.8% and 93.2% and 97% and 99.2%
AsPC-1 (KRAS G12D) | 3 nM | 24 h | 107% and 99.1% and 96.1% and 105%
AsPC-1 | 30 nM | 2 h | 49.8% and 66% and 58.3% and 61.3%
AsPC-1 | 1 µM | 2 h | 1.6% and 3.8% and 4.7% and 3.7%
AsPC-1 (KRAS G12D) | 1 µM | 24 h | 29.7% and 30% and 28.4% and 31.4%
AsPC-1 (KRAS G12D) | 30 nM | 24 h | 105% and 98.5% and 109% and 104%
AsPC-1 | 3 µM | 2 h | 2.3% and 1.4% and 2.6% and 3.9%

Series 6
SMILES: COc1ccc2c(c1)OC(O)(C(=O)O)C(=O)N2Cc1ccccc1 (centres unmarked)
organism | assay | test system | conditions | scale | inhibition
Arabidopsis thaliana | root length | Col-0, seedlings | 12.5 µg/mL | relative to: water control | 10.2%
Arabidopsis thaliana | hypocotyl length | Col-0 | 50.0 µg/mL, 7 days, seed germination, dark |  | 36.6%
Arabidopsis thaliana | root length | Col-0 | 50.0 µg/mL, 7 days, seed germination, dark |  | 46.3%
Arabidopsis thaliana | root length | Col-0 | 12.5 µg/mL, 7 days, seed germination, dark |  | 10.2%
Arabidopsis thaliana | hypocotyl length | Col-0, seedlings | 25 µg/mL |  | 22.7%
Arabidopsis thaliana | root length | Col-0, seedlings | 3.125 µg/mL | relative to: water control | 6.89%
Setaria viridis | fresh weight |  | 150 g ai/ha, pre-emergence treatment |  | 28.5% and 32.1% and 31.2%
Triticum aestivum | fresh weight |  | soil surface spray, 150 g ai/ha, 21 days, pre-emergence crop safety |  | 3.1% and 2.5% and 4.3%
Arabidopsis thaliana | hypocotyl length | Col-0, seedlings | 3.125 µg/mL |  | 5.93%
Eclipta prostrata | fresh weight |  | 150 g ai/ha, post-emergence treatment |  | 69.2% and 65.8% and 64.2%
Arabidopsis thaliana | root length | Col-0, seedlings | 6.25 µg/mL |  | 9.88%
Arabidopsis thaliana | hypocotyl length | Col-0 | 6.25 µg/mL, 7 days, seed germination, dark |  | 9.2%
Arabidopsis thaliana | hypocotyl length | Col-0, seedlings | 50 µg/mL |  | 36.6%
Arabidopsis thaliana | root length | Col-0 | 3.13 µg/mL, 7 days, seed germination, dark |  | 6.9%

Series 7
Structure (SMILES): C[C@@H]1CN(c2ccc(-c3cc(C(=O)NCCOCCOCCOCCOCCNC(=O)/C=C/c4[nH]cc(C(=O)N[C@@H](CC(N)=O)c5ccc(F)c(Cl)c5)c4-c4ccc(Cl)cc4F)ccc3F)cc2NC(=O)c2c[nH]c(=O)cc2C(F)(F)F)C[C@H](C)N1C
Read-out: thermal unfolding
Method: differential scanning fluorimetry
Concentration: 5.5 µM
Direction: higher = more unfolded
WDR5: WD repeat-containing protein 5 (WDR5, Homo sapiens, UniProt P61964)
DCAF1: DDB1- and CUL4-associated factor 1 (DCAF1, Homo sapiens, UniProt Q9Y4B6)
target | temperature | SYPRO Orange fluorescence [a.u.]
WDR5 | 42.2 °C | 14900
DCAF1 | 94.61 °C | 30100
WDR5 | 50 °C | 16400
DCAF1 | 29.4 °C | 9430
DCAF1 | 73.01 °C | 52200
WDR5 | 81.01 °C | 43300
WDR5 | 82.01 °C | 46000
WDR5 | 36.4 °C | 13500
WDR5 | 42.8 °C | 15000
DCAF1 | 71.21 °C | 54300
WDR5 | 67.41 °C | 14100

Series 8
Structure (SMILES): N#C/C=C/CNCCCCN1c2ccccc2CCc2ccc(Cl)cc21.O=C(O)/C=C\C(=O)O
Cell line: NCI-H292
Method: CellTiter-Glo
Time: 72 h
Direction: higher = more viable cells
concentration | luminescence
0.05 µM | 4.2e+06 a.u. and 4.14e+06 a.u.
0.005 µM | 4.19e+06 a.u. and 4.08e+06 a.u. and 4.11e+06 a.u.
0.5 µM | 4.05e+06 a.u. and 4.1e+06 a.u. and 4.21e+06 a.u.
5 µM | 2.19e+06 a.u. and 2.48e+06 a.u. and 2.15e+06 a.u.
50 µM | 75200 a.u. and 76100 a.u. and 72400 a.u.
